# Assay results collected from several papers.
# Each line is one published result; not all experiments were run side by side. ± gives the spread as reported.
Compound,assay,test system,setting,half-life [h]
CC(C)(CCCC/C=C/CCCCCC(C)(C)C(=O)O)C(=O)O,,"rhesus monkey, male, hyperlipidaemic, plasma","oral, 20 mg/kg, first dose",49.5 ± 29.3
CC1(C)O[C@H](COP2(=O)OCc3ccccc3O2)[C@H](C(=O)NO)O1 (stereo partly drawn),chemical stability,PBS,"1 mg/mL, pH 7.2",0.63
CC(=O)N[C@@H](Cc1ccc(O)cc1)C(=O)N[C@@H](CCCNC(=N)N)C(=O)N[C@@H](Cc1ccccc1)C(=O)N[C@@H](C)C(=O)N[C@@H](CCCNC(=N)N)C(=O)N[C@@H](CC(N)=O)C(=O)N[C@@H](C)C(=O)N[C@H](C(=O)N[C@@H](Cc1ccccc1)C(=O)N[C@@H](C)C(=O)N[C@@H](Cc1ccccc1)C(=O)N[C@@H](Cc1ccc(O)cc1)C(=O)N[C@@H](C)C(=O)N[C@H](C(=O)N[C@@H](CC(=O)O)C(N)=O)[C@@H](C)O)C(C)C,LC-MS,human serum,"10 µM, 37 °C",< 0.167
CCCCCCCC/C=C\CCCCCCCCOP(O)(O)=S.N,,"mouse, male, nonirradiated","sc, dose not given",1.41
N=C(N)NCCC[C@H](NC(=O)[C@H](CCCCNC(=O)c1cncc(OS(=O)(=O)F)c1)NS(=O)(=O)c1cccc(F)c1)C(=O)NC1CCC1,"chemical stability, HPLC",glutathione solution,"50 µM, pH 8",> 17
CC[C@H](C)[C@@H]1NC(=O)[C@H](Cc2ccc(O)cc2)NC(=O)[C@@H](N)CSCSC[C@@H](C(=O)N2CCC[C@H]2C(=O)N[C@@H](CC(C)C)C(=O)NCC(N)=O)NC(=O)[C@H](CC(N)=O)NC(=O)[C@H](CCC(N)=O)NC1=O,,phosphate buffer,"0.1 mg/mL, pH 4.5, 55 °C",768 ± 40.8
CC(C)C[C@@H](/C=C/CC(=O)NC1CC(C)(C)N([O])C(C)(C)C1)NC(=O)OC(C)(C)C,,"C57BL/6NHsd mouse, female, liver",,1
CC(C)C[C@H](NC(=O)[C@H](CCCCN)NC(=O)[C@H](CCC(=O)O)NC(=O)[C@H](C)NC(=O)[C@@H](NC(=O)[C@H](CCCCN)NC(=O)[C@H](CC(=O)O)NC(=O)[C@H](Cc1ccc(O)cc1)NC(=O)[C@H](Cc1ccccc1)NC(=O)[C@H](C)NC(=O)[C@H](CCCCN)NC(=O)[C@H](CC(C)C)NC(=O)[C@H](Cc1c[nH]c2ccccc12)NC(=O)[C@@H](N)CC(=O)O)C(C)C)C(=O)N[C@@H](CCCCN)C(=O)N[C@@H](CCC(=O)O)C(=O)N[C@@H](C)C(=O)N[C@@H](Cc1ccccc1)C(=O)N1CCC[C@H]1C(=O)N[C@@H](CC(=O)O)C(=O)N[C@@H](Cc1c[nH]c2ccccc12)C(=O)N[C@@H](C)C(=O)N[C@@H](CCCCN)C(=O)N[C@@H](C)C(=O)N[C@@H](C)C(=O)N[C@@H](Cc1ccc(O)cc1)C(=O)N[C@@H](CC(=O)O)C(=O)N[C@@H](CCCCN)C(=O)N[C@@H](C)C(=O)N[C@@H](C)C(=O)N[C@@H](CCC(=O)O)C(=O)N[C@@H](CCCCN)C(=O)N[C@@H](C)C(=O)N[C@@H](CCCCN)C(=O)N[C@@H](CCC(=O)O)C(=O)N[C@@H](C)C(=O)N[C@@H](C)C(=O)O,,"cynomolgus monkey female, plasma","intravenous infusion, 75 mg/kg every other day, day 27",4
CC(COC(=O)c1ccccc1)OC(=O)C(N)C(C)C (mixture of isomers),,isotonic buffer,"pH 7.4, 37 °C",24.2 ± 2.76
COC(=O)C(=O)/C(=C\c1ccc(-c2ccccc2[N+](=O)[O-])o1)C(=O)c1ccccc1,chemical stability,glutathione solution,500 µM,0.827
CC(COC(=O)c1ccccc1)OC(=O)C(N)Cc1ccccc1 (mixture of isomers),,isotonic buffer,"pH 4.0, 37 °C",> 30
CC[C@H](C)[C@@H]1NC(=O)[C@H](CC(N)=O)NC(=O)[C@@H]2CCCN2C(=O)[C@@H](NC(=O)[C@H](CC(N)=O)NC(=O)[C@@H](N)CCC(N)=O)COC(=O)[C@H](CCSC)NC(=O)[C@H](Cc2c[nH]c3ccccc23)NC(=O)[C@H](CCC(N)=O)NC(=O)CNC(=O)[C@H](Cc2ccccc2)NC1=O,chemical stability,PBS,"280 µM, pH 7.2",~4

# Repeated from above:
Compound,assay,test system,setting,half-life [h]
CC1(C)O[C@H](COP2(=O)OCc3ccccc3O2)[C@H](C(=O)NO)O1 (stereo partly drawn),chemical stability,PBS,"1 mg/mL, pH 7.2",0.63
CC(=O)N[C@@H](Cc1ccc(O)cc1)C(=O)N[C@@H](CCCNC(=N)N)C(=O)N[C@@H](Cc1ccccc1)C(=O)N[C@@H](C)C(=O)N[C@@H](CCCNC(=N)N)C(=O)N[C@@H](CC(N)=O)C(=O)N[C@@H](C)C(=O)N[C@H](C(=O)N[C@@H](Cc1ccccc1)C(=O)N[C@@H](C)C(=O)N[C@@H](Cc1ccccc1)C(=O)N[C@@H](Cc1ccc(O)cc1)C(=O)N[C@@H](C)C(=O)N[C@H](C(=O)N[C@@H](CC(=O)O)C(N)=O)[C@@H](C)O)C(C)C,LC-MS,human serum,"10 µM, 37 °C",< 0.167
